Assay results pooled from the literature.
Lines come from different studies, so protocols differ. ± gives the spread as reported.

`C=Cc1cc(O)cc2nc(-c3ccc(O)c([76Br])c3)oc12` has a tissue uptake of 0.07 ± 0.02 %ID/g (female C57BL/6 mouse, muscle; 1 h, high dose).
For `COc1ccc(C)cc1NC(=O)OC1CC2CCCC(C1)N2Cc1ccc(CC[18F])cc1` (centres unmarked), the tissue uptake was 111 ± 13.5 %ID/g (BALB/c mice, EMT6 tumour, lung; 5 min).
`COc1cc2ncnc(Oc3cccc(N[11C](=O)Nc4cc(C(C)(C)C(F)(F)F)on4)c3)c2cc1OC` gave a tissue uptake of 2.03 ± 0.11 %ID/g (Balb/c nude mouse, female, A375 melanoma xenograft, muscle; 6.6 MBq, 30 min).
`N=C(N)NCc1ccc(C(=O)NCCCC[C@H](NC(=O)N[C@@H](CCC(=O)O)C(=O)O)C(=O)O)cc1[131I]` gave a tissue uptake of 0.34 ± 0.13 %ID/g (SCID mouse, PC-3 xenografts, thyroid; 1 h).
For `O=C(c1ccc(F)cc1)C1CCN(C2Cc3c(cccc3OCC[18F])CC2O)CC1` (single isomer, unassigned; (-)), the tissue uptake was 0.403 ± 0.095 %ID/g (Sprague-Dawley rat, male, bone; intravenous, dose not given, 60 min).
With `N=C(N)NCc1ccc(C(=O)NCCCC[C@H](NC(=O)CCCCCCC(=O)NCCCC[C@H](NC(=O)N[C@@H](CCC(=O)O)C(=O)O)C(=O)O)C(=O)O)cc1[211At]` the tissue uptake was 2.07 ± 0.68 %ID/g (SCID mouse, PC-3 xenografts, spleen; 21 h).
With `CN[C@](C)(C[18F])C(=O)O` the tissue uptake was 4.5 ± 0.3 %ID/g (SCID mouse A549 xenograft, tumour; 30 min post injection).
`N=C(N)NCc1ccc(C(=O)NCCCC[C@H](NC(=O)N[C@@H](CCC(=O)O)C(=O)O)C(=O)O)cc1[211At]` gave a tissue uptake of 0.74 ± 0.27 %ID/g (SCID mouse, PC-3 xenografts, thyroid; 14 h).
`CCN(CC)c1ccc2c(-c3ccccc3C(=O)OCCOCC[18F])c3ccc(=[N+](CC)CC)cc-3oc2c1` has a tissue uptake of 3.53 ± 0.57 %ID/g (rat, spleen; 60 min).
For `CN(C)c1ccc(C(=O)NCCCCN2CCN(c3ccccc3O[11CH3])CC2)cc1`, the tissue uptake was 0.688 %ID/g (male Sprague Dawley rat, lung; iv, 30 min; baseline: untreated).
`CCN(CC)c1ccc2c(-c3ccccc3C(=O)OCCC[18F])c3ccc(=[N+](CC)CC)cc-3oc2c1` has a tissue uptake of 0.55 ± 0.11 %ID/g (rat, liver; 60 min).
`O=C(O)CC[C@H](NC(=O)O[C@@H](CCCCNC(=O)c1ccc([18F])cc1)C(=O)O)C(=O)O` gave a tissue uptake of 0.33 ± 0.05 %ID/g (mouse, PC-3 PIP/flu xenografts, lung; 90 min).
For `N=C(N)NCc1ccc(C(=O)NCCCC[C@H](NC(=O)CCCCCCC(=O)NCCCC[C@H](NC(=O)N[C@@H](CCC(=O)O)C(=O)O)C(=O)O)C(=O)O)cc1[131I]`, the tissue uptake was 0.18 ± 0.07 %ID/g (SCID mouse, PC-3 xenografts, blood; 2 h).
With `CCNc1cc2[o+]c3cc(NCC)c(C)cc3c(-c3ccccc3C(=O)OCCOCC[18F])c2cc1C` the tissue uptake was 0.12 ± 0.03 %ID/g (rat, muscle; 60 min).

Repeated from above:
`CCN(CC)c1ccc2c(-c3ccccc3C(=O)OCCC[18F])c3ccc(=[N+](CC)CC)cc-3oc2c1` has a tissue uptake of 0.55 ± 0.11 %ID/g (rat, liver; 60 min).
`O=C(O)CC[C@H](NC(=O)O[C@@H](CCCCNC(=O)c1ccc([18F])cc1)C(=O)O)C(=O)O` gave a tissue uptake of 0.33 ± 0.05 %ID/g (mouse, PC-3 PIP/flu xenografts, lung; 90 min).
